Measured values of several laboratories.
Every numbered part comes from another study and shows a few of its results, in no order. Substitutions count along the parent as printed.

Series 1
Target: Histone acetyltransferase KAT6A, winged helix 1, GST fusion (KAT6A, Homo sapiens, UniProt Q92794, residues 1-85)
Method: protein binding microarray
Molecule type: double-stranded DNA, one strand shown
Sample: in vitro
Concentration: not given
Notes: 8-mer, flanks averaged, mean of 2 arrays, mostly near background
Relative to: not given
Direction: higher = stronger binding
Endpoint: E-score
Construct (chain): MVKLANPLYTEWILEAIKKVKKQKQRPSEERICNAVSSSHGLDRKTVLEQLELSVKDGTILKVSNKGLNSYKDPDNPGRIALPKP
AGCCATAT: -0.14
GGTTAGGA: -0.168
AGAAAAAG: -0.195
CTGAGTCC: -0.0653
AAATTCGC: -0.00891
AAATATAA: -0.0941
AGCCGACC: 0.326
GAGGGAGC: -0.0366
AGGCGCAC: 0.193

Series 2
Target: ABI1, truncated, D143A, DHFR fusion (Arabidopsis thaliana)
Method: DHFR PCA, deep sequencing
Sample: yeast
Notes: methotrexate growth selection, single substitutions
With: (+)-ABA 0 µM
Relative to: wild-type fitted maximum
Direction: higher = stronger binding
Endpoint: relative binding score
Starting sequence: PYL1, truncated, DHFR fusion (Arabidopsis thaliana); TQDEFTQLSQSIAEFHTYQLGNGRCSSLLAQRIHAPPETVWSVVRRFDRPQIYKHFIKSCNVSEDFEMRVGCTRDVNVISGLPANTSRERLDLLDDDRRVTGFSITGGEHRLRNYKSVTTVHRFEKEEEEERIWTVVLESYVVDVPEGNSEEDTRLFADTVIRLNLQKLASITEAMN; partner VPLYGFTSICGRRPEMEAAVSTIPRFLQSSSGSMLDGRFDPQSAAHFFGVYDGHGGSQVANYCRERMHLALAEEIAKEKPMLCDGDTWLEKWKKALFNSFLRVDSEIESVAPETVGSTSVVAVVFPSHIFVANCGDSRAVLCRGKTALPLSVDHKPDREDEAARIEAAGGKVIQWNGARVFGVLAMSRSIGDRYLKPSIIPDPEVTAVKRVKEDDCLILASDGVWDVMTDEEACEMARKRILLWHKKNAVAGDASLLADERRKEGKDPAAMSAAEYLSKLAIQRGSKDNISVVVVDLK
N149P: 11.5%
R155E: -5.29%
H34S: 18.9%
L20G: 22.8%
Q7G: 27.6%
F15Q: 1.66%
V118H: 12.4%
G21Y: 6.59%

Series 3
Target: CCNE2, cyclin fold, Cln2 fusion (human)
Method: yeast growth competition, sequencing
Sample: yeast
Notes: weak parent motif
Relative to: not given
Direction: higher = stronger binding
Endpoint: normalised enrichment score
Starting sequence: RB1 docking peptide (human); PKPLKKLRFDIEG
K6P: 0.365
G13D: 0.497
R8M: 0.5
P3E: 1.15
L4H: 0.314
E12W: 0.649
D10M: 1.56
L4M: 1.06
K6I: 0.0699

Further values, each from its own experiment
PhoQ, residues 284 288 289 292 302 303 AGCYAI
fold induction (PhoP, residues 12 14 15 18 19 NHFRA (Escherichia coli, UniProt P23836); Sort-seq, measured: YFP reporter; E. coli; PhoQ-PhoP variant library, with: 10 µM Mg2+; relative to: high Mg2+ state, higher = stronger signaling): 3.06

A few entries again (series 3):
K6P: 0.365
G13D: 0.497
